Experimental data of several laboratories.
Each numbered part is a random draw from the data of one study; scales do not carry over between parts.

Series 1 — method: protein binding microarray; molecule type: double-stranded DNA, one strand shown; medium: in vitro; tested at: not given; relative to: not given; reading: higher = stronger binding
Target: Histone acetyltransferase KAT6A, both winged helices, GST fusion (KAT6A, Homo sapiens, UniProt Q92794, residues 1-181)
Notes: 8-mer, flanks averaged, mean of 2 arrays, mostly near background
Residues (chain): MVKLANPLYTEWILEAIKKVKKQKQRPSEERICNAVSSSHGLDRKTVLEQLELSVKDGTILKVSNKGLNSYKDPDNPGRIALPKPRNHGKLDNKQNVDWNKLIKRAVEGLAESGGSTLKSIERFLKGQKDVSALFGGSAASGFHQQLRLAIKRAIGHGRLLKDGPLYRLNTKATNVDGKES
With `AACCTGCA` the E-score was -0.189.
`ATCTTAGA` has an E-score of -0.00387.
`AATCATTC` gave an E-score of -0.0592.
For `GTCTTCGA`, the E-score was 0.127.
With `AAGGATGG` the E-score was -0.136.
For `CCACGTCA`, the E-score was -0.135.
`ATTGCGCA` gave an E-score of 0.266.

Series 2 — method: universal PBM; molecule type: double-stranded DNA, one strand shown; medium: in vitro; tested at: not given; reading: higher = stronger binding
Target: Sal-like protein 4, full length isoform B (SALL4, Homo sapiens, UniProt Q9UJQ4-2, residues 1-616)
Notes: 8-mer, flanks averaged, mean of replicates
`AGGGAGCA` gave an E-score of -0.2.
`CCGTTACC` gave an E-score of -0.0112.
With `CAACCGTG` the E-score was -0.13.
`ATCCGACC` has an E-score of -0.0669.
The E-score of `AAAGCACC` is reported as -0.147.
The E-score of `GGGGCCCA` is reported as -0.362.

Series 3 — method: RNA Bind-n-Seq; molecule type: RNA; medium: in vitro; tested at: 200 nM; notes: whole 134-nt RNA, ends assumed; with: 150 mM KCl; relative to: input library; reading: higher = stronger binding
Target: Fragile X messenger ribonucleoprotein 1, C-terminal low-complexity region (Fmr1, Mus musculus, UniProt P35922)
`GGGAGUUCUACAGUCCGACGAUCAGUCCUGUGCUACACAUCGUAUGUACCGAAUCAAAUUUUUUUAAAUUUAAAUUUAAAAAAGUAUUAUGUUACGCCGUUCGGAUCUGCACUUGGAAUUCUCGGGUGUCAAGG` gave a log2 enrichment of -1.42.
For `GGGAGUUCUACAGUCCGACGAUCACCAUGCAGGUGGGCAUCUUUGGGAAGUGGGGCAAGGGGGGGAUAGGGAGGGGGGUAACACUUUGGGAACAGGUGGUCCCAGGUCGUUUUUGGAAUUCUCGGGUGUCAAGG`, the log2 enrichment was 0.847.
The log2 enrichment of `GGGAGUUCUACAGUCCGACGAUCCCUGUGCUACACAUCGUAUGUACCGAAUCGGGGAAAAAGGGGAAAGGGGUUUUUUUGGGGAAAGUAUUAUGUUACGCCGUUCGGAUCUGCUGGAAUUCUCGGGUGUCAAGG` is reported as 0.279.
`GGGAGUUCUACAGUCCGACGAUCUUGUAUUAAGACAACGCUCCUCGACUUAGAUGCCUUGGCAAGACAUUUGGCUGACUGUAUUCGAAGGUAAAAUUUGAUGUGAAAUUGACAUGGAAUUCUCGGGUGUCAAGG` gave a log2 enrichment of -0.638.

Other studies, line by line
The fold induction of `PhoQ, residues 284 288 289 292 302 303 SACGEM` is reported as 2.58 (PhoP, residues 12 14 15 18 19 VHSCL (Escherichia coli, UniProt P23836); Sort-seq, item: YFP reporter; E. coli; PhoQ-PhoP variant library, with: 10 µM Mg2+; relative to: high Mg2+ state, higher = stronger signaling).
